Measurements collected from several papers.
Numbered parts are unrelated; each lists some results of a single study.
UniProt P49840, sequence (whole entry, looked up): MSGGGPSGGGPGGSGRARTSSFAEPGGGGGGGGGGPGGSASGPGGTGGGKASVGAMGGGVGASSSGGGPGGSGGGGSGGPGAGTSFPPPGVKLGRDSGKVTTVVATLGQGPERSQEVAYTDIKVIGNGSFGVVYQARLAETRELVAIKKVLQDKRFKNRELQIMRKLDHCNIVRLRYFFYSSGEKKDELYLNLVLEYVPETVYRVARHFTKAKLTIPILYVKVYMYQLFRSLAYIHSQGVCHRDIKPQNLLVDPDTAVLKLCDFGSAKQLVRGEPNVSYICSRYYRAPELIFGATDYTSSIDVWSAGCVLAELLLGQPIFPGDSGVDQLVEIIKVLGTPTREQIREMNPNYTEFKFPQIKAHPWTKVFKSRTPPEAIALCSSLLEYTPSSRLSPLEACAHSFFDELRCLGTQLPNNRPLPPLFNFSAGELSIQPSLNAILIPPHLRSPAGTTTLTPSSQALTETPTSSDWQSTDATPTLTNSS
UniProt Q15303, sequence (whole entry, looked up): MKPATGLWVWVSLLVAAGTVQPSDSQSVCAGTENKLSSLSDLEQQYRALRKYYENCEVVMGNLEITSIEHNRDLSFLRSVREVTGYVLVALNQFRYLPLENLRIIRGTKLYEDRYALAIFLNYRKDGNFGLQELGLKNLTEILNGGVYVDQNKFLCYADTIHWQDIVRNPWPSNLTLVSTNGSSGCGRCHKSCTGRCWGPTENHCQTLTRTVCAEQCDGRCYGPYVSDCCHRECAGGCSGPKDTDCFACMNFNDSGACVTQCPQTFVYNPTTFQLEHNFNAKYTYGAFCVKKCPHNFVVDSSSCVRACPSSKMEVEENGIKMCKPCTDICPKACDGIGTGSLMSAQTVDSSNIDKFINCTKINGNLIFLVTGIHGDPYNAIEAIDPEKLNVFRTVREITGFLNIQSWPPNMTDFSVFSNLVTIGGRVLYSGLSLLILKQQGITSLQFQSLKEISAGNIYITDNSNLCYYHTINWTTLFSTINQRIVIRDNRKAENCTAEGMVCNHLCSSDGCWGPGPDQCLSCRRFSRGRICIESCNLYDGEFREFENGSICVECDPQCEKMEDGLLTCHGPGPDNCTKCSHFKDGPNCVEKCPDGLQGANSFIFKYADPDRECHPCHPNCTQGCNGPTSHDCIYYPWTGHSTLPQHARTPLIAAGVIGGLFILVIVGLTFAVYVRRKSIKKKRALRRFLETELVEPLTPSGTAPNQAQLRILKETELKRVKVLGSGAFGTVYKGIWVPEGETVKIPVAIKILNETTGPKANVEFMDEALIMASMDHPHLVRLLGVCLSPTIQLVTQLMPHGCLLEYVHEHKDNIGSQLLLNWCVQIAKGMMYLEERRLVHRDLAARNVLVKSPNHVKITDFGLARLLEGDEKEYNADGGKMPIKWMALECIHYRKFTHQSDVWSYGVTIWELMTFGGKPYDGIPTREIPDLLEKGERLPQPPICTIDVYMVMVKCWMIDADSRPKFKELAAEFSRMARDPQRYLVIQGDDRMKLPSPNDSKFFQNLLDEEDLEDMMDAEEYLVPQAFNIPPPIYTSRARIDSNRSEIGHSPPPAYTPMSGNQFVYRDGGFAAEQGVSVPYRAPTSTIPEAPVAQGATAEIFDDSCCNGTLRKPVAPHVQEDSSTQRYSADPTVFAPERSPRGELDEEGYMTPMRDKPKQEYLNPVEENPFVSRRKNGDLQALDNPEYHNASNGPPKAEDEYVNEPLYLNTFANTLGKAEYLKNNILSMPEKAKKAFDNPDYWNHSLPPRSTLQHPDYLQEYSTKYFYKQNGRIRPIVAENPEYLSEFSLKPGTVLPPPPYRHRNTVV
UniProt Q8TD19, sequence (whole entry, looked up): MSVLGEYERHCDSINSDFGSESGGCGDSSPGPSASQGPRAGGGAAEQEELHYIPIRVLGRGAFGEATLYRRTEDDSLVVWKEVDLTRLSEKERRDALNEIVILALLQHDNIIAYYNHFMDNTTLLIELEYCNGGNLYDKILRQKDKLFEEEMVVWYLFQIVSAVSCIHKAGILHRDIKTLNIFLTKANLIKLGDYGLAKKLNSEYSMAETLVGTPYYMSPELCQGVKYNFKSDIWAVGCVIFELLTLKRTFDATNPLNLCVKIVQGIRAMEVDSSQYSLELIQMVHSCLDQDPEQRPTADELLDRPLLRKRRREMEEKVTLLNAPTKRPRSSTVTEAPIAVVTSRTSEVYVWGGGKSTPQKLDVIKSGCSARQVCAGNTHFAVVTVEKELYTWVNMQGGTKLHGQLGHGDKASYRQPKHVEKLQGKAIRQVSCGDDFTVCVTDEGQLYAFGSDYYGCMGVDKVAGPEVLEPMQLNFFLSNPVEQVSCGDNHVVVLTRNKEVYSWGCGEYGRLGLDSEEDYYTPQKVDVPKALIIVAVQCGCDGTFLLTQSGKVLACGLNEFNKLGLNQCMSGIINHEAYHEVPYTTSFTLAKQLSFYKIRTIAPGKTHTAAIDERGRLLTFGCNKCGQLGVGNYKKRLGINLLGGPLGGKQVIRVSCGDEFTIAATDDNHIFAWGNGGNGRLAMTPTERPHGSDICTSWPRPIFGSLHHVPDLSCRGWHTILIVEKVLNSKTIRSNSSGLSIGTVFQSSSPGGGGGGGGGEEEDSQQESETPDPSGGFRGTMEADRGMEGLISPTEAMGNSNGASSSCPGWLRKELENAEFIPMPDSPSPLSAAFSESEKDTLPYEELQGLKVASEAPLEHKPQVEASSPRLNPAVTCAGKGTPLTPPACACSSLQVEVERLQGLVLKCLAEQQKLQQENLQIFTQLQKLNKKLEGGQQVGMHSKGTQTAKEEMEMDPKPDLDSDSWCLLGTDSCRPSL
UniProt P42336, sequence (whole entry, unmodified, looked up): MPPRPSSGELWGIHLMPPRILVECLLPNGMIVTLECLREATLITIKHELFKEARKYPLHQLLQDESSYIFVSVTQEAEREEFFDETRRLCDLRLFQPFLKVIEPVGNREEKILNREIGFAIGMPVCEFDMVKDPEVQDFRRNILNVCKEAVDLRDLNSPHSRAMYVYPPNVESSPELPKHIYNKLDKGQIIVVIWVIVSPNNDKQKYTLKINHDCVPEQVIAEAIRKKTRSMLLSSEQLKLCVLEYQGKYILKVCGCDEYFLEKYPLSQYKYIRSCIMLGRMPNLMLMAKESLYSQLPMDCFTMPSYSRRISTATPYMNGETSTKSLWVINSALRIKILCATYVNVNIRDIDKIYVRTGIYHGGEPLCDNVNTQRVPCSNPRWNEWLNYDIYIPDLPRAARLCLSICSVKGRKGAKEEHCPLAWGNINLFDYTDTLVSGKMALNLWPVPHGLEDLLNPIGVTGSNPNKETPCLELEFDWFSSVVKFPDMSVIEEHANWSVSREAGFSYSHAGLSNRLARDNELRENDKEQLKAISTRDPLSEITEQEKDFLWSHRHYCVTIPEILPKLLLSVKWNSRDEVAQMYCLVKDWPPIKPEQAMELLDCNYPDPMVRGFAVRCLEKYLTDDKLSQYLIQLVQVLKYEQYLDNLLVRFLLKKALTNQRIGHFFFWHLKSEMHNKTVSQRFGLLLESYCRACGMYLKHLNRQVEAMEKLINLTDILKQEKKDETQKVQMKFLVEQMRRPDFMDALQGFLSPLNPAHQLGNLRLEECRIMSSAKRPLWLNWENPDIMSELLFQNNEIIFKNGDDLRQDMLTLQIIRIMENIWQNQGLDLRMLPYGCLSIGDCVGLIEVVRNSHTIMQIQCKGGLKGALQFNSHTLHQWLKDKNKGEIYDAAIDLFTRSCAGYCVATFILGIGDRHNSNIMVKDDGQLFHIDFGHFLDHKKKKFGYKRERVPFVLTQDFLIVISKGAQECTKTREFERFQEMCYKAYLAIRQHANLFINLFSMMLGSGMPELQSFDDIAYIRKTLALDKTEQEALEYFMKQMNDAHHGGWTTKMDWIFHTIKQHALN
UniProt Q9UPZ9, sequence (whole entry, looked up): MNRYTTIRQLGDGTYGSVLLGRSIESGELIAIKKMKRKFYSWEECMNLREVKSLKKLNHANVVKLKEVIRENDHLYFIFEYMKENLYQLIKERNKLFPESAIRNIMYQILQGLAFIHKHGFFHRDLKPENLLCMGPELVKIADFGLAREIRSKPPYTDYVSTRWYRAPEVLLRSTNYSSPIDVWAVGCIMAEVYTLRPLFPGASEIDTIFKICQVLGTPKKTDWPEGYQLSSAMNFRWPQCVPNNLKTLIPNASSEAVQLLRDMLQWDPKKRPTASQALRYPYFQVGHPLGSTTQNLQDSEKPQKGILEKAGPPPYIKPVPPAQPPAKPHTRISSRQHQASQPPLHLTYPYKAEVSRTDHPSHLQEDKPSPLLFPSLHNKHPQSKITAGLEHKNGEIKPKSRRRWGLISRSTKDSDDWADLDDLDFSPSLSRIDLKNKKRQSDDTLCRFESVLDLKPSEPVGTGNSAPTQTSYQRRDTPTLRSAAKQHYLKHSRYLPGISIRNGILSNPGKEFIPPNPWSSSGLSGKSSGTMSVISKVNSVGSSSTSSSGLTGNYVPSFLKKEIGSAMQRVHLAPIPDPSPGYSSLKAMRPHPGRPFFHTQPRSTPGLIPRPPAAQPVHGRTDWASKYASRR
UniProt Q9BRS2, sequence (whole entry, looked up): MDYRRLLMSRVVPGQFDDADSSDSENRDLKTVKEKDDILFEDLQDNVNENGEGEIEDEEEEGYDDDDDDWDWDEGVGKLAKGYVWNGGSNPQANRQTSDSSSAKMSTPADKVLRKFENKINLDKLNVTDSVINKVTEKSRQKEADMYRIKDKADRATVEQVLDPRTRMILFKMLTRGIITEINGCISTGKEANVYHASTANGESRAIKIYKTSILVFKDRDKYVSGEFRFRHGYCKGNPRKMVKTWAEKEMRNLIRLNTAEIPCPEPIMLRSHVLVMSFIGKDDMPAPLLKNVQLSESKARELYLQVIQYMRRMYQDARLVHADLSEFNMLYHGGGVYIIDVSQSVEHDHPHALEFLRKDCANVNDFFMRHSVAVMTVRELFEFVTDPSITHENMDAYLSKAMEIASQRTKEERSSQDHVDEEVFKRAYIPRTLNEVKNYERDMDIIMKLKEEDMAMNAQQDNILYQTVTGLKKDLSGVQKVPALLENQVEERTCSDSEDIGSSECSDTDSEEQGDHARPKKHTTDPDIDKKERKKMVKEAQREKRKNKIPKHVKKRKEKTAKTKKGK

Set 1 — organism: Sarcocystis neurona; effect on: parasite growth; concentration: 10 µM; measurement: inhibition
SMILES = CC(C)(S)[C@@H](N)C(=O)O; value = -23.6%
SMILES = O=C1NC(=O)C(c2ccccc2)(c2ccccc2)N1; value = 6.9%
SMILES = O=C(O)CCCc1ccccc1; value = -22.3%
SMILES = CC(C)NCC(O)COc1cccc2ccccc12.Cl (stereo not shown); value = -23.3%
SMILES = CO[C@H]1O[C@@H]2O[C@@]3(C)CC[C@H]4[C@H](C)CC[C@@H]([C@H]1C)[C@@]24OO3; value = 62%
SMILES = CCCNCC(O)COc1ccccc1C(=O)CCc1ccccc1 (stereo not shown); value = 65.8%

Set 2 — cell line: HaCaT; concentration: 100 µM; time: 36 h; measurement: viability
SMILES = Nc1nc(CC(=O)Nc2ccc(CCNC[C@H](O)c3ccccc3)cc2)cs1; value = 69.8%
SMILES = CC1(C)S[C@@H]2[C@H](NC(=O)[C@H](N)c3ccccc3)C(=O)N2[C@H]1C(=O)OCOC(=O)[C@@H]1N2C(=O)C[C@H]2S(=O)(=O)C1(C)C; value = 98.3%
SMILES = C[C@@H](O)[C@H]1C(=O)N2C(C(=O)O)=C(S[C@@H]3CN[C@H](CNS(N)(=O)=O)C3)[C@H](C)[C@H]12; value = 108%
SMILES = COc1cc2c(cc1OC)CC(=O)N(CCCN(C)C[C@H]1Cc3cc(OC)c(OC)cc31)CC2; value = 93.2%
SMILES = Cc1cc(=O)n(-c2ccccc2)n1C; value = 95.9%
SMILES = CC(C)n1c(/C=C/[C@H](O)C[C@H](O)CC(=O)O)c(-c2ccc(F)cc2)c2ccccc21 (racemic); value = 20.3%
SMILES = NCCC(O)(P(=O)(O)O)P(=O)(O)O; value = 10.4%

Set 3 — effect on: cell-free assay; method: competition with immobilised ligand; concentration: 1 µM; measurement: remaining binding
SMILES: CNCc1ccccc1-c1csc([C@@H](C)Nc2nc(C)nc3cc(OC)c(OC)cc23)c1
target = RIOK1 (Homo sapiens, UniProt Q9BRS2); value = 100%
target = WNK1 (Homo sapiens, UniProt Q9H4A3); value = 88%
target = WNK4 (Homo sapiens, UniProt Q96J92); value = 100%
target = ERBB4 (Homo sapiens, UniProt Q15303); value = 97%
target = MET (Homo sapiens, UniProt P08581, M1250T); value = 79%
target = EGFR (Homo sapiens, UniProt P00533, L858R/T790M); value = 93%
target = CILK1 (Homo sapiens, UniProt Q9UPZ9); value = 82%
target = Tyrosine-protein kinase ABL1, phosphorylated (ABL1, Homo sapiens, UniProt P00519, Y253F); value = 94%
target = NEK5 (Homo sapiens, UniProt Q6P3R8); value = 99%
target = GSK3A (Homo sapiens, UniProt P49840); value = 100%
target = PRKCI (Homo sapiens, UniProt P41743); value = 100%
target = STK36 (Homo sapiens, UniProt Q9NRP7); value = 100%
target = PIK3CA (Homo sapiens, UniProt P42336, E545K); value = 78%
target = NEK9 (Homo sapiens, UniProt Q8TD19); value = 100%

Set 4 — host: mouse; medium: microsomes or S9; concentration: 2 µM; time: 0.5 h; measurement: remaining compound
Structure (SMILES) = O=C(O)CCC(=O)N1N=C(c2nn(-c3ccccc3)cc2-c2ccccc2)CC1c1cccs1 (stereo not shown); value = 99.2%
Structure (SMILES) = CCOC(=O)CNC(=O)N1Cc2c(sc3c2CCCC3)-n2cccc2C1c1ccc(C(C)C)cc1 (stereo not shown); value = 0.44%
Structure (SMILES) = COc1cc(-c2nc3ncccn3c2NC2CCCC2)cc(OC)c1OC; value = 1.55%
Structure (SMILES) = COc1ccc(C2c3cccn3-c3sc4c(c3CN2C(=O)NCc2ccc(F)cc2)CCCC4)cc1 (stereo not shown); value = < 1%
Structure (SMILES) = COCCOc1cc(=O)n2c(c1C(=O)NCc1ccc(OC)cc1)CCOCC2; value = 92.3%
Structure (SMILES) = CCn1cc(C(=O)NCc2ccc3c(c2)OCO3)c(=O)c2cc(F)c(N3CCN(C)CC3)cc21; value = 32.3%
Structure (SMILES) = CCc1cnc(C)nc1NCC1CC(C(C)C)=NO1 (stereo not shown); value = 93.8%

Excerpt of the above (set 3):
target = WNK1 (Homo sapiens, UniProt Q9H4A3); value = 88%
target = WNK4 (Homo sapiens, UniProt Q96J92); value = 100%
target = ERBB4 (Homo sapiens, UniProt Q15303); value = 97%
target = MET (Homo sapiens, UniProt P08581, M1250T); value = 79%
target = EGFR (Homo sapiens, UniProt P00533, L858R/T790M); value = 93%
